Measurements gathered from unrelated publications.
Every numbered part comes from another study and shows a few of its results, in no order. Substitutions count along the parent as printed.

Study 1
Target: CCNE2, cyclin fold, Cln2 fusion (human)
Technique: yeast growth competition, sequencing
Medium: yeast
Setting: weak parent motif
Baseline: not given
Direction: higher = stronger binding
Starting sequence: E2F8 docking peptide (human); FVPQRKLEVSTED
| Variant | normalised enrichment score |
| --- | --- |
| FVPQRALEVSTED [K6A] | 0.279 |
| FVPQRKLAVSTED [E8A] | -0.162 |
| FVPQAKAEVSTED [R5A L7A] | -0.391 |
| FVPQRKLEVATED [S10A] | 0.105 |
| FVPQAKLEVSTED [R5A] | 0.107 |
| FVPQRKLEFSTED [V9F] | 0.125 |
| FVPQKKLEVSTED [R5K] | 0.104 |
| FVPQRKLELSTED [V9L] | -0.209 |
| FVPQRKLEVSTAD [E12A] | -0.0779 |
| FVAQRKLEVSTED [P3A] | 0.241 |
| FVPQRKLEVSTEA [D13A] | -0.109 |

Study 2
Target: Myc proto-oncogene protein, bHLH-zipper, MAX partner unstated (MYC, Homo sapiens, UniProt P01106, residues 368-449)
Chain of UniProt P01106 (368-449, looked up): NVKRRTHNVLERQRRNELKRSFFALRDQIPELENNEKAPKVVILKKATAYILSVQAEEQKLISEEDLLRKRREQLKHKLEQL
Technique: protein-binding microarray
Form: double-stranded DNA, one strand shown
Medium: in vitro
Concentration: not given
Setting: k-mer, scored over probes, only values ≥0.25
Direction: higher = stronger binding
| Sequence | E-score |
| --- | --- |
| CGTGACTC | 0.267 |
| ACAGGTGG | 0.342 |
| CGCAACAC | 0.252 |
| GGTGTCAC | 0.268 |
| CACGCCAC | 0.402 |
| ACCACACG | 0.392 |
| CAGCATGA | 0.259 |
| CATGACAC | 0.326 |
| ATGGCCTC | 0.251 |
| CACCGCGC | 0.292 |
| ACGCTGTC | 0.302 |
| CGCGTGGA | 0.449 |
| ACATGTTG | 0.352 |
| ATGAGGAC | 0.263 |
| ACGCGTCC | 0.343 |
| ACGTGCTG | 0.392 |
| ACGTGGGA | 0.434 |
| CACGGTGC | 0.334 |

Study 3
Target: Interferon regulatory factor 7, full length, phosphomimetic (IRF7, Homo sapiens, UniProt Q92985, residues 1-503, S101K/S471D/S472D/S475D/S476D/S477D/S483D/S484D/S487D)
Chain of UniProt Q92985 (whole entry, unmodified, looked up): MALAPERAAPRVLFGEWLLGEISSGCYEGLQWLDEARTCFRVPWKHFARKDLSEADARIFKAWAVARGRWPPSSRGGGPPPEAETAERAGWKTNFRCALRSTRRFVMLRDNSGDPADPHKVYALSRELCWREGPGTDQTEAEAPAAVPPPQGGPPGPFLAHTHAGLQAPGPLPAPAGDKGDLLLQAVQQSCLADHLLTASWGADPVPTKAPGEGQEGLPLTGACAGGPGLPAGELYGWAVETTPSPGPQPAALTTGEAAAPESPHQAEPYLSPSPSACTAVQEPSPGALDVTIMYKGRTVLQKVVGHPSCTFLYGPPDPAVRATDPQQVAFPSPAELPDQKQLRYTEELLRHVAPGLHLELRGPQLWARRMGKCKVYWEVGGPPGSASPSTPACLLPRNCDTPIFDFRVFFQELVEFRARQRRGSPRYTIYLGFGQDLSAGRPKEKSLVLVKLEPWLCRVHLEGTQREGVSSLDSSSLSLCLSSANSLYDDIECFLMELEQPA
Technique: protein-binding microarray
Form: double-stranded DNA, one strand shown
Medium: in vitro
Concentration: 250 nM
Setting: 60-bp whole probe
Added: salmon DNA 0.4 mg/ml
Baseline: random background probes
Direction: higher = stronger binding
Shared flanks, not repeated: GCCTAGCAC … GTCTTGATTCGCTTGACGCTGCTG
| Sequence | log fluorescence |
| --- | --- |
| TTAGGTCTCCTTTTACTTTAGTGCTAG | 1.82 z-score |
| GACCGTCTCGGTTTCGGGACGTGCTAG | 4.88 z-score |
| GTTATCCTATATCTGAACCGGTGCTAG | 2.61 z-score |
| TTAGGACTCCTTATCCTTTAGTGCTAG | 0.41 z-score |
| TTAGGAGTCAACTCTCTAATTGTGCTA | -0.4 z-score |
| AAAACTAGGGCATTTAGAAAAGTGCTA | -0.129 z-score |
| GACGGTATCGGACTGGGGACGTGCTAG | 0.0247 z-score |
| GCCGGTCTCCTTCTCCTGACGTGCTAG | 0.378 z-score |
| AAATTTTGATGAACTTAAGCGTGCTAG | -0.416 z-score |
| TTAGGACTGGGGATTGGGTTAGTGCTA | -0.4 z-score |
| GTGAAATAAGGGAGGCCTAGGTGCTAG | -0.509 z-score |
| TTAGCTTCCCTTTTCCTTTAGTGCTAG | 1.26 z-score |
| TCAGCTGTTTTTCTCACCACGTGCTAG | 0.0589 z-score |
| TCAAAAATGCCCTTTTGGACTGTGCTA | 0.0153 z-score |
| TTAGGTTTCGGGTTTCGGCTAGTGCTA | 11.6 z-score |
| CACGGTATCCTTTTCCTGACGTGCTAG | 1.07 z-score |
| TTTGGTTTCCTTTTCCTTTAGTGCTAG | 8.38 z-score |
| TTAGATTTCGGGACTGGCTTAGTGCTA | -0.124 z-score |
| GGTGGGGTGCAGCAGGGCCAGTGCTAG | -1.39 z-score |
| GCATTTTTTTTTTCTACTTCGTGCTAG | 1.45 z-score |
| TTAGGTATCGACACTGTGTTAGTGCTA | 0.0886 z-score |
| TTAGGTTTTCTACTGCTTTAGTGCTAG | 0.528 z-score |
| CACGGTCTCCTACTGCTGACGTGCTAG | -0.255 z-score |
| CTAGGACTGGGGACTGGGTTAGTGCTA | -0.394 z-score |
| TCAGATCTCAGACTGGATTAGTGCTAG | 0.121 z-score |

Study 4
Target: Sal-like protein 4, full length isoform B (SALL4, Homo sapiens, UniProt Q9UJQ4-2, residues 1-616)
Technique: universal PBM
Form: double-stranded DNA, one strand shown
Medium: in vitro
Concentration: not given
Setting: 8-mer, flanks averaged, mean of replicates
Direction: higher = stronger binding
| Sequence | E-score |
| --- | --- |
| ACTGTTAC | 0.0852 |
| CTACGCTC | -0.147 |
| CGGTTCAG | -0.26 |
| ATGCTGTG | 0.0477 |
| AAGACCCA | -0.173 |
| GAGCAAGC | -0.287 |
| GCTTTCCC | -0.204 |
| TAACTGCA | 0.191 |
| CAAGCCCA | -0.0939 |
| GAACAATA | 0.339 |
| CAATCCAA | 0.0046 |
| CTGATCTC | -0.188 |
| CGTCCGAG | -0.25 |
| GGTGTGGA | -0.0732 |
| ACCATGGA | -0.166 |
| CCTTCTAG | -0.0746 |
| AGTCCTAT | 0.164 |
| TGTAGCAA | 0.146 |
| CTAAGCGA | -0.304 |
| AGACGGCG | -0.267 |
| AGTGCAAG | 0.0882 |
| GACATGAA | 0.144 |
| CGTGGAAG | -0.0881 |
| CTTTGAGC | -0.191 |
| AGCTTAAT | 0.172 |

Study 5
Target: UBE2E2 UBC core domain (UniProt Q96LR5)
Chain of UniProt Q96LR5 (whole entry, looked up): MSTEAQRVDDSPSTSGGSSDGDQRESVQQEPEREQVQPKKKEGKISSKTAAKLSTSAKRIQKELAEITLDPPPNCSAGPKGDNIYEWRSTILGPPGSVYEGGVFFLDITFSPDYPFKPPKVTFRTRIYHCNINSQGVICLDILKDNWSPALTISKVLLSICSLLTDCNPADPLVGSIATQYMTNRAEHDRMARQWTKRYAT
Technique: yeast two-hybrid
Medium: yeast
Setting: mostly zero background
Baseline: not given
Direction: higher = stronger interaction
B1: UBOX5 RING domain (UniProt O94941); chain EQPGSILGPECASCKRVFSPYFKKEPVYQLPCGHLLCRPCLGEKQRSLPMTCTACQRPVASQDVLR
B2: RNF121 RING domain (UniProt Q9H920); chain MPTKHLSDSVCAVCGQQIFVDVSEEGIIENTYRLSCNHVFHEFCIRGWCIVGKKQTCPYCKEKVDLKRMFS
B3: TRIM62 RING domain (UniProt Q9BVG3); chain MACSLKDELLCSICLSIYQDPVSLGCEHYFCRRCITEHWVRQEAQGARDCPECRRTFAEPALAP
B4: SYTL4 RING domain (UniProt Q96C24); chain RGSQHYSDRTCARCQESLGRLSPKTNTCRGCNHLVCRDCRIQESNGTWRCKVCAKEIELKKAT
B5: RBCK1 RING domain (UniProt Q9BYM8); chain SLVLNTEPAECPVCYSVLAPGEAVVLRECLHTFCRECLQGTIRNSQEAEVSCPFIDNTYSCSGKLLEREIK
B6: SH3RF1 RING domain (UniProt Q7Z6J0); chain DESALLDLLECPVCLERLDASAKVLPCQHTFCKRCLLGIVGSRNELRCPECRTLVGSGVEEL
B7: ZMIZ2 RING domain (UniProt Q8NF64); chain GTIPGTPGPNGEDGVEQTAIKVSLKCPITFRRIQLPARGHDCRHIQCFDLESYLQLNCERGTWRCPVCNKTALLEGLEVDQYMLGILIYIQNSDYEEITIDPTCSWK
B8: RFWD3 RING domain (UniProt Q6PCD5); chain ASMDEEEGDTCTICLEQWTNAGDHRLSALRCGHLFGYRCISTWLKGQVRKCPQCNKKARHSDIVV
| Molecule | lacZ reporter activity |
| --- | --- |
| AVPSGLEENLCKICMDSPIDCVLLECGHMVTCTKCGKRMNECPICRQYVIRAVHVF (RFFL RING domain (UniProt Q8WZ73)) | 0 |
| B1 (UBOX5 RING domain) | 0 |
| B2 (RNF121 RING domain) | 0 |
| B3 (TRIM62 RING domain) | 0 |
| B4 (SYTL4 RING domain) | 0 |
| PEDRESLKSACVVCLSSFKSCVFLECGHVCSCTECYRALPEPKKCPICRQAITRVIPLY (MUL1 RING domain (UniProt Q969V5)) | 0 |
| GSDDEEIPFKCFICRQSFQNPVVTKCRHYFCESCALQHFRTTPRCYVCDQQTNGVFNPA (RNF113A RING domain (UniProt O15541)) | 0 |
| AMYLQENGIDCPKCKFSYALARGGCMHFHCTQCRHQFCSGCYNAFYAKNKC (RNF31 RING domain (UniProt Q96EP0)) | 0 |
| B5 (RBCK1 RING domain) | 0 |
| B6 (SH3RF1 RING domain) | 0 |
| B7 (ZMIZ2 RING domain) | 0 |
| B8 (RFWD3 RING domain) | 0 |
